Measurements of several laboratories.
Protocols differ between the studies behind these lines. ± gives the spread as reported.

CC[C@H](C)[C@H](NC(=O)[C@H](CC(C)C)NC(=O)[C@H](Cc1c[nH]c2ccccc12)NC(=O)[C@H](C)NC(=O)[C@@H](NC(=O)[C@H](Cc1ccccc1)NC(=O)[C@H](CC(=O)O)NC(=O)[C@H](CCCNC(=N)N)NC(=O)[C@H](C)NC(=O)[C@H](C)NC(=O)[C@H](CC(C)C)NC(=O)[C@H](C)NC(=O)[C@H](CC(=O)O)NC(=O)[C@H](CC(C)C)NC(=O)[C@@H](NC(=O)[C@@H](NC(=O)[C@H](C)NC(=O)[C@H](CC(C)C)NC(=O)[C@H](CCC(=O)O)NC(=O)[C@H](CO)NC(=O)[C@H](CO)NC(=O)[C@H](Cc1ccccc1)NC(=O)[C@@H](NC(=O)CNC(=O)[C@H](CCC(=O)O)NC(=O)CNC(=O)[C@@H](N)Cc1cnc[nH]1)[C@@H](C)O)[C@@H](C)O)[C@@H](C)CC)[C@@H](C)CC)C(=O)N[C@@H](C)C(=O)N[C@H](C(=O)N[C@@H](CCCCN)C(=O)N[C@H](C(=O)N[C@H](C(=O)N[C@@H](CC(=O)O)C(=O)N[C@@H](CCCCN)C(=O)N[C@@H](CCCCN)C(=O)N[C@@H](CCCCN)C(=O)N[C@@H](CCCCN)C(=O)N[C@@H](CCCCN)C(=O)N[C@@H](CCCCN)C(N)=O)[C@@H](C)O)[C@@H](C)CC)[C@@H](C)O — share of total exposure (healthy human subjects, plasma; intravenous infusion, 1 mg glepaglutide; relative to: sum of parent and metabolites): 92%
CNCc1cc(-c2ccccc2F)n(S(=O)(=O)c2cccnc2)c1 — apparent clearance ratio (rat Sprague-Dawley, plasma; oral, 10 mg/kg, together with: voriconazole 30 mg/kg/day for 14 days; relative to: control over voriconazole): 2.1 fold
O=C(O)c1cccc(CN2CN(C3CCCCC3)C3(CCN(CCCC(=O)c4ccccc4)CC3)C2=O)c1 — rearing activity (rat Sprague Dawley female; 300 mg/kg/day, 4 to 8 min after start, first session): 2 counts
CC[C@H](C)[C@H](NC(=O)[C@H](C)NC(=O)[C@H](CCC(=O)O)NC(=O)[C@H](CCCCNC(=O)c1ccc2c(c1)C1(OC2=O)c2ccc(O)cc2Oc2cc(O)ccc21)NC(=O)CCOCCOCCOCCNC(=O)CCOCCOCCOCCNC(=O)[C@H](CCCNC(=N)N)NC(=O)CNC(=O)[C@H]1CCCN1C(=O)[C@@H](N)Cc1c[nH]c2ccccc12)C(=O)N[C@@H](Cc1ccc(O)cc1)C(=O)N[C@@H](C)C(=O)N[C@@H](C)C(=O)N1CCC[C@H]1C(=O)N[C@@H](Cc1ccccc1)C(=O)N[C@@H](C)C(=O)N[C@@H](CCCCN)C(=O)N[C@@H](CCCCN)C(=O)N[C@@H](CCCCN)C(N)=O — initial degradation rate (Baf/BCR-ABL cell lysate; 2 µM, 37 °C): 2.2 pmol/mg/s
CNC(=O)c1ccc(-c2cnc3ncc(Cc4ccc5ncccc5c4)n3n2)cc1F — Vz/F (geometric mean) (human, moderate hepatic impairment (Child-Pugh B), plasma; oral, 200 mg single dose): 292 L
CCCC[C@@H]1NC(=O)[C@@H](NC(=O)[C@H](CCC(=O)O)NC(=O)CNC(=O)CN2CCN(CC(=O)O)CCN(CC(=O)O)CCN(CC(=O)O)CC2)CCCCNC(=O)C[C@@H](C(N)=O)NC(=O)[C@H](C(C)C)NC(=O)[C@@H]2CCCN2C(=O)[C@H](CCCNC(=N)N)NC(=O)CNC(=O)[C@H](Cc2c[nH]c3ccccc23)NC(=O)[C@H](CCCNC(=N)N)NC(=O)[C@@H](Cc2ccccc2)NC(=O)[C@H](Cc2c[nH]cn2)NC(=O)[C@H](CCC(=O)O)NC1=O [indium-111 labelled] — urinary excretion (C57 mice, B16F10 lung metastasis, urine; intravenous, 0.037 MBq, 2 h): 84.1 ± 2.32%
Cc1ccc(NC(=O)c2ccc(CN3CCN(C)CC3)cc2)cc1Nc1nccc(-c2cncc(-c3oncc3C)c2)n1 — AUC(0-tau) (healthy volunteers, plasma; oral, 200.0 mg once daily, day 7, 7-day dosing, mean): 97200 ng·h/mL
Cc1ccco1 — Km (metabolic activation to acetaldehyde; pooled human liver microsomes; 10 min, low concentrations): 32.9 µM
O=C(O)c1cc(O)c(O)c(O)c1 — EC20 (mitochondrial swelling; BALB/cByJ female mouse liver mitochondria; 30 min, together with: succinate + rotenone; relative to: CaCl2 maximal swelling): > 200 µM
O=C(NC[C@H]1CN(c2ccc(N3CCOCC3=O)cc2)C(=O)O1)c1ccc(Cl)s1 — apparent clearance CL/F (Sprague-Dawley rat, male, plasma; oral, 10 mg/kg, together with: naringenin 10 mg/kg/day oral, 2 weeks): 42.8 ± 12.2 mL/min/kg
[2H]C([2H])([2H])Oc1cc2c(cc1OC([2H])([2H])[2H])C1CC(=O)C(CC(C)C)CN1CC2 (stereo not drawn) — dose-normalized Cmax (measured: deuterated β-HTBZ; healthy human volunteers, plasma; oral, 12 mg single dose, standard meal): 0.9 ng/mL
CCc1cc2c(C(=O)c3cc(Br)c(O)c(Br)c3)c(OC)ccc2o1 — microsomal CLint (metabolic stability; Sprague-Dawley rat, liver microsomes; 1 µM, pH 7.4): 6.2 µL/min/mg
CCN(CC)CCNC(=O)c1c(C)[nH]c(/C=C2\C(=O)Nc3ccc(F)cc32)c1C — median trough plasma concentration (human, plasma; oral, 15 mg/m2, day 21): 37.7 ng/mL
CC(=O)[C@H]1CC[C@H]2[C@@H]3CCC4=CC(=O)CC[C@]4(C)[C@H]3CC[C@]12C — log intrinsic permeability (in situ brain perfusion; rat; no efflux inhibition): -3.74
CO[C@@H]1[C@@H](OC(N)=O)[C@@H](O)[C@H](Oc2ccc3c(O)c(NC(=O)c4ccc(O)c(CC=C(C)C)c4)c(=O)oc3c2C)OC1(C)C — EC20 (cytochrome c release, ELISA; BALB/cByJ female mouse liver mitochondria; 30 min; relative to: alamethicin maximal release): > 400 µM
O=c1[nH]c(=O)c(Cc2cccc(C(F)(F)F)c2)c([C@H]2CC[C@H](c3ccccc3)CC2)[nH]1 — Cmax (human, plasma; oral, 150 mg once daily, day 7, geometric mean): 142 ng/mL
CC[C@H](C)[C@H](NC(=O)[C@H](CCCCN)NC(=O)[C@@H](NC(=O)[C@H](CC(N)=O)NC(=O)[C@H](C)NC(=O)[C@H](CCCNC(=N)N)NC(=O)[C@H](CCCNC(=N)N)NC(=O)[C@H](CC(N)=O)NC(=O)[C@H](CCCNC(=N)N)NC(=O)[C@H](CCCNC(=N)N)NC(=O)[C@H](C)NC(=O)[C@@H](NC(=O)[C@H](CO)NC(=O)[C@@H](NC(=O)[C@@H](NC(=O)[C@H](CS)NC(=O)[C@H](CCCCN)NC(=O)[C@@H](N)CCCNC(=N)N)C(C)C)[C@@H](C)CC)C(C)C)[C@@H](C)CC)C(=O)N[C@@H](CC(C)C)C(=O)N[C@@H](CS)C(=O)N[C@@H](CC(N)=O)C(=O)O — single disulfide form (LC-MS; PBS; 0.1 mg/mL): 29%
Cn1cnc2c(F)c(Nc3ccc(Br)cc3Cl)c(C(=O)NOCCO)cc21 — AUC (ESRD on hemodialysis, plasma; oral, 50 mg single dose, dosed after dialysis): 1880 ng·h/mL
Cc1cccc(C)c1N(CC(=O)Nc1ccc(-c2ncon2)cc1)C(=O)C1CCS(=O)(=O)CC1 — share of plasma radioactivity (radio-HPLC; human; oral, 200 mg, 0.5 to 12 h): ~80%
COc1cccc(-c2ccc(NC(=O)C3=C(C(=O)O)CCC3)c(F)c2)c1 — AUC(0-24h) (human, male, fasted, plasma; oral, 10 mg, single dose, geometric mean): 19700 ng·h/mL
CC(C)c1c(C(=O)Nc2ccccc2)c(-c2ccccc2)c(-c2ccc(F)cc2)n1CC[C@@H](O)C[C@@H](O)CC(=O)O — EC20 (cytochrome c release, ELISA; BALB/cByJ female mouse liver mitochondria; 30 min; relative to: alamethicin maximal release): < 50 µM
COC(=O)C[C@](O)(CCCC(C)(C)O)C(=O)O[C@@H]1C(OC)=C[C@]23CCCN2CCc2cc4c(cc2[C@H]13)OCO4 — tissue concentration (CD1 mouse, bone marrow; oral, 1 mg/kg, 0.5 h, below quantification limit 1.00 ng/mL): not detected
NC(=O)OCC(COC(N)=O)c1ccccc1 — ALP (Sprague-Dawley rat, male, blood; oral, 1920 mg/kg, 6 h): decreased
O=c1c(O)c(-c2ccc(O)c(OS(=O)(=O)O)c2)oc2cc(O)cc(O)c12 — mean concentration (human, fasted baseline, cerebrospinal fluid): 18.1 nM
O=c1c(O)c(-c2ccc(O)cc2)oc2cc(OS(=O)(=O)O)cc(O)c12 — MRT (FVB mice, male, Mdr1a^−/−, plasma; oral, 10 mg/kg of kaempferol): 3.95 ± 1.53 h
NCCCC[C@@H]1NC(=O)[C@@H](Cc2c[nH]c3ccccc23)NC(=O)[C@H](c2ccccc2)NC(=O)[C@@H]2C[C@@H](OC(=O)NCCN)CN2C(=O)[C@H](Cc2ccccc2)NC(=O)[C@H](Cc2ccc(OCc3ccccc3)cc2)NC1=O — alpha half-life (radioimmunoassay; healthy human male volunteers, plasma; subcutaneous, 2.5 µg): 2.6 ± 1.4 h
O=C(Cc1cccc(OC(F)(F)F)c1)Nc1ccc(CCCCc2nnc(NC(=O)Cc3ccccn3)s2)nn1 — AUC(0-8h) (human patients, plasma; oral, 150 mg three times daily fasted, cycle 1 day 15 steady state): 7600 ng·h/mL
Cc1nc2cccc(OCC(C)(C)C(=O)NC(C)C)c2c(N)c1C(=O)O — Tmax (male Sprague-Dawley rat, plasma; dietary, 30 mg/kg/day, day 90): 0 h
CCCC[C@H](NC(C)=O)C(=O)N[C@H]1CCC(=O)NC[C@@H](C(=O)N[C@@H](Cc2c[nH]c3ccccc23)C(N)=O)NC(=O)[C@H](CCCNC(=N)N)NC(=O)[C@@H](Cc2ccccc2)NC(=O)[C@H](Cc2c[nH]cn2)NC1=O — Tmax (beagle dog, male, plasma; subcutaneous, 8.0 mg/kg daily, day 1): 0.75 h
COc1ccc(-c2coc3cc(O)ccc3c2=O)cc1O — accuracy (extracted rat plasma, autosampler; 563 ng/mL, 24 h, 4 °C, post-preparative stability, high QC): 92.2 % nominal
N[C@@H](CC(=O)O)Cn1nnc(-c2ccc(Oc3ncc(Cl)cc3F)cc2)n1 — concentration (human, blood; 70 mg single dose, 72 h): ~30 ng/mL
Cc1cc(Nc2cc3ncccc3c(N[C@@H]3C[C@H]4CC[C@@H](C3)N4CCC#N)n2)n[nH]1 — Cmax (pregnant rat, maternal plasma; oral, 1000 mg/kg/day, gestation day 6): 102 ng/mL
Cc1ccc(Nc2c(F)cccc2Cl)c(CC(=O)O)c1 — EC20 (mitochondrial swelling; BALB/cByJ female mouse liver mitochondria; 30 min, together with: succinate + rotenone; relative to: CaCl2 maximal swelling): > 200 µM
Cc1cc(C)c2c(c1)[C@@H](N(Cc1cc(C(F)(F)F)cc(C(F)(F)F)c1)c1nnn(C)n1)CCCN2C[C@H]1CC[C@H](C(=O)O)CC1 — AUC(0-tau) at steady state (human, dyslipidemic patients, plasma; oral, 30 mg daily, monotherapy, geometric mean): 2300 ng·h/mL
O=C(c1cccnc1-c1ccncc1)N1CCC(O)(Cc2ccccc2)CC1 — AUCinf (healthy human, plasma; oral, 600 mg once daily, day 1, arithmetic mean): 4220 ng·h/mL
CCCCCCCCCCCCCCCCNC — in vivo intrinsic clearance (liver S9 substrate depletion; rainbow trout liver S9; six-surfactant mixture): 10 mL/h/g liver
COc1cccc2c1C(=O)c1c(O)c3c(c(O)c1C2=O)C[C@@](O)(C(C)=O)C[C@@H]3O[C@H]1C[C@H](N)[C@H](O)[C@H](C)O1 — EC20 (mitochondrial swelling; BALB/cByJ female mouse liver mitochondria; 30 min, together with: succinate + rotenone; relative to: CaCl2 maximal swelling): < 6.25 µM
CC[C@@H]1C(=O)N(C)c2cnc(Nc3ccc(C(=O)N[C@H]4CC[C@H](N5CCN(CC6CC6)CC5)CC4)cc3OC)nc2N1C(C)C — median Tmax (human, plasma; intravenous infusion, 50 mg over 2 h, first infusion): 2 h
CC(C)(CO)c1cc2cc(NC(=O)C3(c4ccc5c(c4)OC(F)(F)O5)CC3)c(F)cc2n1C[C@@H](O)CO — AUC ratio (healthy subjects, plasma; oral, 25 mg tezacaftor once daily, together with: ivacaftor 50 mg, itraconazole 200 mg; relative to: with over without itraconazole): 4.02
COc1cccc2c1C(=O)c1c(O)c3c(c(O)c1C2=O)C[C@@](O)(C(=O)CO)C[C@@H]3O[C@H]1C[C@H](N)[C@H](O)[C@H](C)O1 — EC20 (mitochondrial swelling; BALB/cByJ female mouse liver mitochondria; 30 min, together with: succinate + rotenone; relative to: CaCl2 maximal swelling): 85 µM
CC[C@@H]1C(=O)N(C)c2cnc(Nc3ccc(C(=O)N[C@H]4CC[C@H](N5CCN(CC6CC6)CC5)CC4)cc3OC)nc2N1C(C)C — Vss (non-compartmental analysis; human, plasma; intravenous infusion, 400 mg (first infusion)): 4720 L
CC1=NS(=O)(=O)c2cc(Cl)ccc2N1 — EC20 (mitochondrial swelling; BALB/cByJ female mouse liver mitochondria; 30 min, together with: succinate + rotenone; relative to: CaCl2 maximal swelling): > 200 µM
Cn1c(-c2ccc(C(N)=O)cc2F)nnc1C(C)(C)Oc1c(F)cc(Cl)cc1F — mean Cmax (young non-Japanese humans, plasma; oral, 2 mg, day 1, single dose): 0.864 ng/mL
NC12CC3CC(CC(C3)C1)C2 — EC20 (cytochrome c release, ELISA; BALB/cByJ female mouse liver mitochondria; 30 min; relative to: alamethicin maximal release): > 400 µM
C[C@@H](O)[C@H]1C(=O)N2C(C(=O)O)=C(S[C@@H]3CN[C@H](C(=O)N(C)C)C3)[C@H](C)[C@H]12 — time above MIC (pig, Danish Landrace, plasma; intravenous, 1000 mg over 10 min, 450 min dosing interval, together with: 0.125 µg/mL MIC; relative to: dosing interval): 90%
